Measurements of several laboratories.
Parts stem from different laboratories: compare values within a part only.
Chain of UniProt P42336 (whole entry, unmodified, looked up): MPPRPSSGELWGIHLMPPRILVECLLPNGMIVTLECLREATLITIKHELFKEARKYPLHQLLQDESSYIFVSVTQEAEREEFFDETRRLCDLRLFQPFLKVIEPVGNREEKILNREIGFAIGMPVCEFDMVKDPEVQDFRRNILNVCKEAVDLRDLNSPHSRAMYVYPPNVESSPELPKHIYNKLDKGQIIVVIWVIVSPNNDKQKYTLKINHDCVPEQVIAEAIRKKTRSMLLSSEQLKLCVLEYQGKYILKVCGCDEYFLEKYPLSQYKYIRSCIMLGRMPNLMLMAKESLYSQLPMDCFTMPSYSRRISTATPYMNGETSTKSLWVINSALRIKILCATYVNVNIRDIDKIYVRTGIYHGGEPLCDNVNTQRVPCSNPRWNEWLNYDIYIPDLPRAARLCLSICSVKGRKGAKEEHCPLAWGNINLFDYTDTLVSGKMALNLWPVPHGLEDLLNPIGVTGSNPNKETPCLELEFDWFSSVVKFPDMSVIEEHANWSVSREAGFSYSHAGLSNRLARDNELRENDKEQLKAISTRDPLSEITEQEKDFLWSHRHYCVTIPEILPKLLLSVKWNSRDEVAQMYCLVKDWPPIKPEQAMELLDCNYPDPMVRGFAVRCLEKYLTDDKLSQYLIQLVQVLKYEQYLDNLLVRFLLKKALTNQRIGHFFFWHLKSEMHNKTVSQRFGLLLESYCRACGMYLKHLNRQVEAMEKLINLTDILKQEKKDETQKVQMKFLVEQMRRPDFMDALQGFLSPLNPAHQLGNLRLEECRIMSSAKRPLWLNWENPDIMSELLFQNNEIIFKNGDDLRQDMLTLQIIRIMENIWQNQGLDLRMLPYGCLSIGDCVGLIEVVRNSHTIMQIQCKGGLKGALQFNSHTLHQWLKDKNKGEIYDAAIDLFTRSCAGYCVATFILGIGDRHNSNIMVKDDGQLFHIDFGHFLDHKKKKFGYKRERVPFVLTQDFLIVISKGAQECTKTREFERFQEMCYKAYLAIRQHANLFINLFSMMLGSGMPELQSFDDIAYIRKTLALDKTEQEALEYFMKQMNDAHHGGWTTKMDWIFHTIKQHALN
Chain of UniProt P37173 (whole entry, looked up): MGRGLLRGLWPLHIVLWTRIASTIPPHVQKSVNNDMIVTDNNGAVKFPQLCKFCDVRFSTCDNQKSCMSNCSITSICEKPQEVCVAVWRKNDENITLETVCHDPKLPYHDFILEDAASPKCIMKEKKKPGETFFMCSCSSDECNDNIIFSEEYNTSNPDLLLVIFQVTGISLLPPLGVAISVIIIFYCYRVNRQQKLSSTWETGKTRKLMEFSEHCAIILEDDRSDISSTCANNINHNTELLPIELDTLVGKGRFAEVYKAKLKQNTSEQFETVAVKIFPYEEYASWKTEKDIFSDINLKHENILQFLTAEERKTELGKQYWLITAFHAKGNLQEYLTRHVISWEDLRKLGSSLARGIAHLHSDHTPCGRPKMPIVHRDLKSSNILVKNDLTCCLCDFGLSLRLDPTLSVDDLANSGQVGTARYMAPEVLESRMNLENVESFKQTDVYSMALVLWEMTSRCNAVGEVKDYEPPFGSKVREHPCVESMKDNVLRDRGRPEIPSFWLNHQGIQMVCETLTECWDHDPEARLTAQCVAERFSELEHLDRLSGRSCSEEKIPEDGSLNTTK
Chain of UniProt P53778 (whole entry, looked up): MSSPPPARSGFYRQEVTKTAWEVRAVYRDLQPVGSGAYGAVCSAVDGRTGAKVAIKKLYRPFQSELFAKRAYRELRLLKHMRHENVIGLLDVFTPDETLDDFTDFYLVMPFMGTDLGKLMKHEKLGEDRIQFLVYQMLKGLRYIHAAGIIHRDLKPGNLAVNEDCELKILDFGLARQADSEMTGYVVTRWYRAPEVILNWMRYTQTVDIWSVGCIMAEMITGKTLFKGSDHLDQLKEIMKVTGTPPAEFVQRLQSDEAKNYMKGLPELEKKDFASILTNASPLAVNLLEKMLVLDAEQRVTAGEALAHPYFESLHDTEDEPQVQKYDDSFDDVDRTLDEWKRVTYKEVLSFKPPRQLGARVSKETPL
Chain of UniProt P07948 (whole entry, looked up): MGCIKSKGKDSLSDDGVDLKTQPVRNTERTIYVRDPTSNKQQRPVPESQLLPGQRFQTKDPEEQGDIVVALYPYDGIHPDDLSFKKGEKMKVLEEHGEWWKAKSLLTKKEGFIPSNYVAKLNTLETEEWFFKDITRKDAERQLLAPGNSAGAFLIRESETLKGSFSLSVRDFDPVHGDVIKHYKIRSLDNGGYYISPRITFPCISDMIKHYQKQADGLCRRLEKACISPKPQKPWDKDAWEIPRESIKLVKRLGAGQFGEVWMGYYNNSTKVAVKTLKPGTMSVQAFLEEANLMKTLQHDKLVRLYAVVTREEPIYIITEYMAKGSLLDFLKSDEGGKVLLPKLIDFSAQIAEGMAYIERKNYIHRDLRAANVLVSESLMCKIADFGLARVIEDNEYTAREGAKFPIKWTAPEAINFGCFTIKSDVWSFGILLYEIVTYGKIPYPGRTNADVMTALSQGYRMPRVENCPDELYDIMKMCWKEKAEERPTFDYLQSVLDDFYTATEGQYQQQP
Chain of UniProt Q8IY84 (whole entry, looked up): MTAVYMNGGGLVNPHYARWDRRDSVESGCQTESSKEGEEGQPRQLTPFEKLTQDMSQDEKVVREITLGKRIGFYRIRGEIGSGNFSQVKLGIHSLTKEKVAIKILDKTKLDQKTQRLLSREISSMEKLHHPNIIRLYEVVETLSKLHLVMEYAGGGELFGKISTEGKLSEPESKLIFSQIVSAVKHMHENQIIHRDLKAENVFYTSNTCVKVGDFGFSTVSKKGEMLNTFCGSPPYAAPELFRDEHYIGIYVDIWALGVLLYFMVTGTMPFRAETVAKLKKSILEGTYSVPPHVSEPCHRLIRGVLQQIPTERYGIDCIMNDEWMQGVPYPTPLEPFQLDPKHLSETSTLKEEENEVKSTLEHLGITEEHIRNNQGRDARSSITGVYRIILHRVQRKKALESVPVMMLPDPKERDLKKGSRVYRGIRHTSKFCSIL
Chain of UniProt Q9UIK4 (whole entry, looked up): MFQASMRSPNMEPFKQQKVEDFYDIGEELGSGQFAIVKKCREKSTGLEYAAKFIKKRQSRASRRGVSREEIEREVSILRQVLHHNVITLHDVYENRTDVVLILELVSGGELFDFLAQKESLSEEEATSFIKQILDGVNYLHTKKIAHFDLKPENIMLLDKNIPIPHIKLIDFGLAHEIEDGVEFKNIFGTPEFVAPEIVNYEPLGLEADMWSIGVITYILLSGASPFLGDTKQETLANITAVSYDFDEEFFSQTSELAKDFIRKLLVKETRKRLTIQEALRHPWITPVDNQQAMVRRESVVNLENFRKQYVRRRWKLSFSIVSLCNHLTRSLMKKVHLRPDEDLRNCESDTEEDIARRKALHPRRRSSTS
Chain of UniProt O96017 (whole entry, looked up): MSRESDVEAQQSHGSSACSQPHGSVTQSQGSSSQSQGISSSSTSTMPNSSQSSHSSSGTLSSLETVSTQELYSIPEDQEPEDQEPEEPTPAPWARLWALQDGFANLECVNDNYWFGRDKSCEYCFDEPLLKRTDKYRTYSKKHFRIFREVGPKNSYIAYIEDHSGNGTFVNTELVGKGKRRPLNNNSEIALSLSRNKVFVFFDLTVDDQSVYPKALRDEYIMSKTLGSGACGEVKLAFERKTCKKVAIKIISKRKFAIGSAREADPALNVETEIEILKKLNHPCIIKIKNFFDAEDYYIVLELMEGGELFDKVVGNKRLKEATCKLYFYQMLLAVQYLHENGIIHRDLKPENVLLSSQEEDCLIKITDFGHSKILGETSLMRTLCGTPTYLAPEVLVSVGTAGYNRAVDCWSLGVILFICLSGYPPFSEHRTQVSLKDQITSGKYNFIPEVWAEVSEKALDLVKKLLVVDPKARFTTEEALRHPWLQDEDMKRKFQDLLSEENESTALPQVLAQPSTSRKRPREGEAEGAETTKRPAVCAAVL
Chain of UniProt Q9BYT3 (whole entry, looked up): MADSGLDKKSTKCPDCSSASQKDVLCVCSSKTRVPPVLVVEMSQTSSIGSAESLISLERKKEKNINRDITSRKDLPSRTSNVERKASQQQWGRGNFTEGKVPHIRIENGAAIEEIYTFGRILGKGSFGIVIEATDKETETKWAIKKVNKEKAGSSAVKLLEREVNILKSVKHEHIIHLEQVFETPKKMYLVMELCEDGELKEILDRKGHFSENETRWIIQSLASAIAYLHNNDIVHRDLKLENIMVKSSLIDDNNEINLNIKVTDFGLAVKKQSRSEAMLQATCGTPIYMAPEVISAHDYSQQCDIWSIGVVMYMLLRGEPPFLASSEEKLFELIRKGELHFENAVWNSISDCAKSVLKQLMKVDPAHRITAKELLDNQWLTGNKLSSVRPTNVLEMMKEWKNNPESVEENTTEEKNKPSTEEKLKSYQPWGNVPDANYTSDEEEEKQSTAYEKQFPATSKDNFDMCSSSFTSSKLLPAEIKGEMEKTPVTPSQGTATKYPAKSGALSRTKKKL
Chain of UniProt Q08881 (whole entry, looked up): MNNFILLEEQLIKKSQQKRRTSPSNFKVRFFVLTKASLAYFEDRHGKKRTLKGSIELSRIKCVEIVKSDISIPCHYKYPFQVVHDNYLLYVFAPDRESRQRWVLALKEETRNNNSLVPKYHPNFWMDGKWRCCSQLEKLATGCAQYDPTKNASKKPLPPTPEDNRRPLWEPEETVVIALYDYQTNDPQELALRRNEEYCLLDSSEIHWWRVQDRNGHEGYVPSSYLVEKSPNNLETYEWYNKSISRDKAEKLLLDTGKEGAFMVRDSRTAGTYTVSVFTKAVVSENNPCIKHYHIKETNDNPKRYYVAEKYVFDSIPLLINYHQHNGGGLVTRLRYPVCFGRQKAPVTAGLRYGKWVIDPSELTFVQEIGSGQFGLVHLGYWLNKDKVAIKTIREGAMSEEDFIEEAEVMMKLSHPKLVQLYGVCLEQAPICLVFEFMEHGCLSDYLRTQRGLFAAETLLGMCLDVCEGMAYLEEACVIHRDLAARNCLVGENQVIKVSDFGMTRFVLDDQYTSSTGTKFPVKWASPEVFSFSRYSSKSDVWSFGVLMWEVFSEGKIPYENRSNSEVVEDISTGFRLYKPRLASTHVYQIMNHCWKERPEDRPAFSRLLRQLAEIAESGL

Study 1 — cell line: HaCaT; concentration: 100 µM; time: 36 h
Structure (SMILES) | viability
COc1ccnc(C[S+]([O-])c2nc3cc(-n4cccc4)ccc3[nH]2)c1C (centres unmarked) | 13.7%
CCCOc1ccc(C(=O)OCCN(CC)CC)cc1N | 88.4%
Cc1cnc(C(=O)O)c[n+]1[O-] | 79.4%
CC(=O)Oc1cc(C(C)C)c(OCCN(C)C)cc1C | 87.5%
O=C(Nc1cccc2c(=O)cc(-c3nnn[nH]3)oc12)c1ccc(OCCCCc2ccccc2)cc1 | 18%
C#C[C@]1(O)CC[C@H]2[C@@H]3CCc4cc(OC)ccc4[C@H]3CC[C@@]21C | 25.1%
c1ccc2c(CC3=NCCN3)cccc2c1 | 33.4%
CCOC(=O)n1ccn(C)c1=S | 87.5%
c1ccc2c(c1)CCCC2C1=NCCN1 (centres unmarked) | 43.8%
O=C(CCCl)NCc1ccccc1 | 89.5%
CC1(C)O[C@@H]2C[C@H]3[C@@H]4CCC5=CC(=O)CC[C@]5(C)[C@@]4(F)[C@@H](O)C[C@]3(C)[C@]2(C(=O)CCl)O1 | 76.8%
C[N+]1(C)CCCC(OC(=O)C(O)(c2ccccc2)c2ccccc2)C1 (centres unmarked) | 91.2%
Cn1cnc([N+](=O)[O-])c1Sc1ncnc2nc[nH]c12 | 48%
O=c1oc2cc(O)ccc2s1 | 96.8%
CC(C)(C(=O)c1cccnc1)c1cccnc1 | 77.4%

Study 2 — Structure (SMILES): CCc1[nH]c(-c2ccc(OC)cc2)nc1-c1ccncc1; observed: enzyme activity; mode: inhibitor; concentration: 0.5 µM; reference: control
target | remaining activity
Inhibitor of nuclear factor kappa-B kinase subunit epsilon (IKBKE, Homo sapiens, UniProt Q14164) | 99.8%
Death-associated protein kinase 1 (DAPK1, Homo sapiens, UniProt P53355) | 97.4%
Serine/threonine-protein kinase 10 (STK10, Homo sapiens, UniProt O94804) | 96.8%
Serine/threonine-protein kinase Chk2 (CHEK2, Homo sapiens, UniProt O96017) | 102%
cGMP-dependent protein kinase 1, isoform beta (PRKG1, Homo sapiens, UniProt Q13976) | 91.2%
cAMP-dependent protein kinase catalytic subunit alpha (PRKACA, Homo sapiens, UniProt P17612) | 100%
Serine/threonine-protein kinase STK11 (STK11, Homo sapiens, UniProt Q15831) | 89.5%
Calcium/calmodulin-dependent protein kinase kinase 2 (CAMKK2, Homo sapiens, UniProt Q96RR4) | 109%
Death-associated protein kinase 2 (DAPK2, Homo sapiens, UniProt Q9UIK4) | 104%
TGF-beta receptor type-2 (TGFBR2, Homo sapiens, UniProt P37173) | 140%
Tyrosine-protein kinase Lyn, isoform B (LYN, Homo sapiens, UniProt P07948) | 101%
Serine/threonine-protein kinase Nek2 (NEK2, Homo sapiens, UniProt P51955) | 100%
G protein-coupled receptor kinase 3 (GRK3, Homo sapiens, UniProt P35626) | 98.4%
Mitogen-activated protein kinase kinase kinase 3 (MAP3K3, Homo sapiens, UniProt Q99759) | 99%
Cyclin-dependent kinase 5, with p25 (CDK5, Homo sapiens, UniProt Q00535) | 95.9%
Inhibitor of nuclear factor kappa-B kinase subunit beta (IKBKB, Homo sapiens, UniProt O14920) | 106%
STE20/SPS1-related proline-alanine-rich protein kinase (STK39, Homo sapiens, UniProt Q9UEW8) | 94.2%
TGF-beta receptor type-1 (TGFBR1, Homo sapiens, UniProt P36897) | 98.2%
Protein kinase C alpha type (PRKCA, Homo sapiens, UniProt P17252) | 107%
Serine/threonine-protein kinase OSR1 (OXSR1, Homo sapiens, UniProt O95747) | 97.7%
Calcium/calmodulin-dependent protein kinase type II subunit delta (CAMK2D, Homo sapiens, UniProt Q13557) | 96.4%
Protein kinase C beta type, isoform beta-I (PRKCB, Homo sapiens, UniProt P05771) | 104%
Cyclin-dependent kinase 4, with cyclin D1 (CDK4, Homo sapiens, UniProt P11802) | 107%
Mitogen-activated protein kinase 9 (MAPK9, Homo sapiens, UniProt P45984) | 101%

Study 3 — observed: cell-free assay; technique: competition with immobilised ligand; concentration: 1 µM
Structure (SMILES): N#Cc1ccc(Nc2ccc3[nH]c(=O)[nH]c3c2)c(Cl)c1
target | remaining binding
Serine/threonine-protein kinase NIM1 (NIM1K, Homo sapiens, UniProt Q8IY84) | 100%
Serine/threonine-protein kinase SIK3 (SIK3, Homo sapiens, UniProt Q9Y2K2) | 75%
Activin receptor type-1 (ACVR1, Homo sapiens, UniProt Q04771) | 89%
Interleukin-1 receptor-associated kinase 1 (IRAK1, Homo sapiens, UniProt P51617) | 100%
Serine/threonine-protein kinase ULK3 (ULK3, Homo sapiens, UniProt Q6PHR2) | 100%
Proto-oncogene tyrosine-protein kinase receptor Ret (RET, Homo sapiens, UniProt P07949) | 97%
Mitogen-activated protein kinase 15 (MAPK15, Homo sapiens, UniProt Q8TD08) | 100%
Tyrosine-protein kinase receptor UFO (AXL, Homo sapiens, UniProt P30530) | 100%
Mitogen-activated protein kinase kinase kinase 10 (MAP3K10, Homo sapiens, UniProt Q02779) | 99%
Serine/threonine-protein kinase RIO2 (RIOK2, Homo sapiens, UniProt Q9BVS4) | 89%
Serine/threonine-protein kinase 33 (STK33, Homo sapiens, UniProt Q9BYT3) | 93%
Calcium/calmodulin-dependent protein kinase kinase 1 (CAMKK1, Homo sapiens, UniProt Q8N5S9) | 100%
NUAK family SNF1-like kinase 2 (NUAK2, Homo sapiens, UniProt Q9H093) | 100%
Fibroblast growth factor receptor 3 (FGFR3, Homo sapiens, UniProt P22607, G697C) | 93%
Protein kinase C eta type (PRKCH, Homo sapiens, UniProt P24723) | 97%
Phosphatidylinositol 4,5-bisphosphate 3-kinase catalytic subunit alpha isoform (PIK3CA, Homo sapiens, UniProt P42336) | 77%
Mitogen-activated protein kinase kinase kinase kinase 4 (MAP4K4, Homo sapiens, UniProt O95819) | 77%
Ephrin type-A receptor 3 (EPHA3, Homo sapiens, UniProt P29320) | 86%
Phosphatidylinositol 4,5-bisphosphate 3-kinase catalytic subunit alpha isoform (PIK3CA, Homo sapiens, UniProt P42336, C420R) | 90%
Serine/threonine-protein kinase D1 (PRKD1, Homo sapiens, UniProt Q15139) | 82%
Serine/threonine-protein kinase mTOR (MTOR, Homo sapiens, UniProt P42345) | 98%
Serine/threonine-protein kinase tousled-like 1 (TLK1, Homo sapiens, UniProt Q9UKI8) | 100%
Mitogen-activated protein kinase 12 (MAPK12, Homo sapiens, UniProt P53778) | 100%
Tyrosine-protein kinase ITK/TSK (ITK, Homo sapiens, UniProt Q08881) | 100%
TGF-beta receptor type-2 (TGFBR2, Homo sapiens, UniProt P37173) | 100%

Study 4 — species: mouse; medium: microsomes or S9; concentration: 2 µM; time: 0.5 h
SMILES | remaining compound [%]
Cc1cc(C)c(NC(=O)NCc2ccc3nnn(C4CCC(=O)NC4=O)c(=O)c3c2)c(Br)c1 (centres unmarked) | 21.7
Nc1nc2n(c1C(=O)c1ccc(Br)cc1)CCCC2 | 63.6
O=C(COc1ccccc1)NCCn1cc(-c2ccncc2)c(-c2ccccc2F)n1 | 1.48
C[C@@H](c1ccccc1)N1C(=O)OC[C@H]1CN1CCCC1CO (some centres unmarked) | 36.5
O=C(NC1CCc2ccccc21)c1nnn(-c2ccccc2Cl)c1-c1ccncc1 (centres unmarked) | 2.38
COc1cc2c(cc1OC)C1(c3ccc4c(c3)OCO4)OC(=O)C(=O)N1CC2 (centres unmarked) | 4.74
O=C(c1c(OCC2CC2)cc(=O)n2c1CCOCC2)N1CCN(c2ncccn2)CC1 | 87.1
Cc1nn(C)cc1-c1nn(-c2ccccc2)c(-c2cn(C)nc2C)c1C | 21.9
CCN(CC)C(=O)c1sc(NC(=O)c2cc(OC)cc(OC)c2)c(C(=O)OC(C)C)c1C | 39.1
CC1CCCC(C)N1C(=O)c1cc(-c2ccccc2)nn1-c1ncccc1-c1ccccc1 (centres unmarked) | 0.341
Cn1nc2n(c1=O)CCC(NC(=O)CCC1CCCCC1)CC2 (centres unmarked) | 74.6
O=C1c2[nH]nc(-c3ccccc3)c2C(c2ccccn2)N1CCc1c[nH]c2ccccc12 (centres unmarked) | 9.54
Cc1cccc(C(O)(C(=O)NNc2ccc(Br)cn2)c2cccc(C)c2)c1 | 6.63
